Assay results from different studies.
Protocols differ between the studies behind these lines. “And” joins repeats or separate records; there may be more than shown. ± gives the spread as reported.

For `GWTLNSAGYLLGPHAVDNHRSFNDKHGFT-NH2 (C-amide)`, the mRNA level was 2.2 and 2.35 and 2.03 and 1.44 (RT-qPCR, measured: Ocln; peptide, mouse, DSS-induced colitis, colon; ip, 3 µM, 3% DSS, unit not given; baseline: Gapdh).
For `EALYLVCGE`, “FOXP3+ Treg cells” read 4.14% and 3.03% and 20.3% and 15.4% and 25% and 39% (tetramer binding, flow cytometry; peptide, tetramer-binding CD4+ thymocytes, female NOD.Ins2-/- mice, 6 weeks, thymus; dose not given).
For `insulin human`, the fold change was 0.916 (measured: GRIA3 mRNA; uninfected mouse, brain; i.p., dose not given; baseline: PBS).
`nonaarginine` gave a koff of 256 ± 25 s⁻¹ (PorA peptide pore; peptide binding, planar bilayer single-channel recording; 0.5 µM, pH 7.4, +20 mV, trans side, 150 mM KCl).
The albumin of `HVLVMSATRR` is reported as 3 g/dL and 2.9 g/dL (peptide, C57BL/6J mice, male, serum; subcutaneous osmotic pump, 3 mg/kg/day peptide basis, 8 weeks).
The maximum fusion of `polymyxin B` is reported as 48 ± 1% (calcein leakage; DOPC/DOPG/CHOL liposomes; concentration not given, together with: 20 wt% PEG-8000).
Under “ABTS radical scavenging”, `KKGLGGKLLACKG` is recorded as 0.927 fraction (0-1) (absorbance at 734 nm; peptide; 1 mg/mL, 5 min, room temperature).
`fengycin` gave a maximum fusion of 22 ± 10% (calcein leakage; DOPC/CHOL liposomes; concentration not given, together with: 20 wt% PEG-8000).
`heparin sodium`: “drug-related abnormal liver function” 75% (healthy Chinese adult volunteers; continuous intravenous infusion, 8 IU/kg/h, 5 days).
For `GWTLNSAGYLLGPRRIDHLLMIKEMPIARGREEAPGA / YAVDNHRSFNDKHGFT-NH2 (C-amide)`, the colon length was 6.7 cm and 6 cm and 6.1 cm and 5.6 cm and 6.2 cm (Arrb2 flox control mice, DSS colitis; ip, 3 µM, 2% DSS).
For `KLKGLLGGKKKLK`, “ABTS radical scavenging” read 0.178 fraction (0-1) (absorbance at 734 nm; peptide; 1 mg/mL, 5 min, room temperature).
Under “maximum possible effect”, `Met-enkephalin-Arg-Phe` is recorded as 10.5% and 2.65% and -4.33% and 4.92% and 12.2% and -8.12% and -8.2% and 11% (antinociception, hot plate; male ICR-CD1 mice; intracerebroventricular, 50 µg/animal, 60 min).
`aspterric acid` gave an inhibition of 22.7% (hypocotyl length; Arabidopsis thaliana Col-0 seeds; 3.125 µg/mL, 7 days, dark).
`colistin` gave a metabolic activity of 100% (Aspergillus fumigatus; Alamar blue; 20 µM).
`Polymyxin B` has a survival of 0% (mouse; intraperitoneal, 40 mg/kg single dose, day 6).
